Measurements gathered from unrelated publications.
Parts stem from different laboratories: compare values within a part only.

Series 1 — technique: protein binding microarray; molecule type: double-stranded DNA, one strand shown; sample: in vitro; tested at: not given; baseline: not given; direction: higher = stronger binding
Target: Histone acetyltransferase KAT6A, winged helix 1, GST fusion (KAT6A, Homo sapiens, UniProt Q92794, residues 1-85)
Setting: 8-mer, flanks averaged, mean of 2 arrays, mostly near background
Residues (chain): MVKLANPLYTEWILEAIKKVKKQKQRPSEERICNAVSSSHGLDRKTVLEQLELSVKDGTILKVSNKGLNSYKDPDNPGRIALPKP
Oligonucleotide	E-score
CATACGGC	0.347
GAGCCAAC	-0.205
ATAAGAAG	-0.204
CTACATGA	-0.163
GATCGACA	-0.0946
TATTTGAA	-0.141
CCAGAGCG	0.123
AGTTGACG	-0.0996
ACTTACAA	-0.0468
CCGTGATC	0.258
ATAAGGGG	-0.0261
CCTTTAGA	-0.157
ATTACGTC	-0.0459
TCCTCTCA	-0.306
AGCCATAG	-0.11
ATGGATTA	-0.19
GATAAAGA	-0.0593
CCTTAAAA	-0.244
GCAGAATA	0.00898
CCTTCAGC	-0.056
GAATATCC	-0.0278
ATTCTACC	-0.171
GCAAGTCA	-0.034
AAATCTGC	-0.163
CCCGTCCA	0.255

Series 2 — technique: RNA Bind-n-Seq; molecule type: RNA; sample: in vitro; tested at: not given; baseline: input RNA pool; direction: higher = stronger binding
Target: RING finger protein unkempt homolog, zinc fingers 1-6, GST-SBP tag (UNK, Homo sapiens, UniProt Q9C0B0, residues 30-357)
Sequence of UniProt Q9C0B0 (30-357, looked up): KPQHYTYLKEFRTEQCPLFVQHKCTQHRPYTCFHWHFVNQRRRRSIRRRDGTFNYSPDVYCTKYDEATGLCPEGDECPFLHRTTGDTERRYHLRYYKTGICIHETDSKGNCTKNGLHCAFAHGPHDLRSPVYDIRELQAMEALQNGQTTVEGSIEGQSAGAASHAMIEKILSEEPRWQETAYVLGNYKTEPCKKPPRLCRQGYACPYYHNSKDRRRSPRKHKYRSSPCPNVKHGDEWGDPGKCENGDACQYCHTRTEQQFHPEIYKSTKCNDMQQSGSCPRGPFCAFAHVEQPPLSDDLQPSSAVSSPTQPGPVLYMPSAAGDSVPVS
Setting: RNA with constant flanks, human and mouse sites, ends assumed
Shared flanks, not repeated: GGGAGUUCUACAGUCCGACGAUC … CAACAGAGGAUUGAGCAUCA
Oligonucleotide	bound/input enrichment [ratio]
UUCAAAGCCUUACGUCGACAGUUGCCAGUUACACGCACUAAGAUUGAUUGGAACAAGAUCCUUAGCUACAAGAUUGGCAAAGAGAUGCAGAAUGCAUAAGAUGAACAUUGCAUGACCGGA	0.241
ACCUGGGGCAUUCAGCCGGCGCCCAUGCCUGUGCCUGUGUGGGUGAUCAUCUUGGCAGUUCUCGCAGGGCUGCUGCUACUGGCUGUGUUGGUAUUUGUAAUGUACAGGAUGGGCUUUUUC	0.382
GUCCUGACUUUCCUCCCCGCUCCGUGCAGCCGGGCCGUAGCGGCGAUGCGCCUCAUCCAGAACAUGUGUACCAUCGCAGAGUACCCCGCCCCAGGCAGCACCGCUGCCGACUGCUGCCUG	0.239
UGUUUUGUUAUUGCCUGGAUAUAUGGAGGUGAUAACCUUUAUGAUGGUAUUGAGGACAUGAUUGGCUAUCGGCCCGGGCCCUGGAUGAAGUACAGCUGGGCUGUGAUCACUCCAGUUCUC	0.109
UUGAUGGAGUCAGUAUGGAAUAUGAAUGAUAGCUGUAGAUUUCAACUUCGGUCUCCAGAGAGCCUGAAGAGCAUGGAAAAAGCCAGCAAAACUCUUGAGACAAAGCCCGAGAGUAAGCAG	0.26
AAUUUCCUGUCAUACUUUUUAGACAUUCACAUCAGACUUACAGAGCACCUGGCCACAUUCUAGGUUUGUGUUAUUUCUCAGCUAUGGAUAUGAUCAAAUGAGAACACUGCUUAACUAAUG	0.439
CAAGGCUGACAGUAACACUGAUGAAUGCUGAUAAUCAGGAAACAUGAAAGAAGCCAUUUGAUAGAUUAUUCUAAAGGAUAUCAUCAAGAAGACUAUUAAAAACACCUAUGCCUAUACUUU	0.125
GAAGAGACAUAUGGACAAUGAAUCUGCAAAGGGAGAACACCUUUGGUCCUACAGUUUUGCUGACACUGACAUUUUUCUAAGUGGUCACAAAUAGCCUACUUUUUACAUAAAUAACUGGCU	8.98

Series 3 — technique: RNA Bind-n-Seq; molecule type: RNA; sample: in vitro; tested at: 365 nM; baseline: no-protein control; direction: higher = stronger binding
Target: RNA binding protein fox-1 homolog 2, RRM domain, GST-SBP tag (RBFOX2, Homo sapiens, UniProt O43251-10, residues 100-194)
Setting: natural RNA segment, single round, ends assumed
Shared flanks, not repeated: GGGAGUUCUACAGUCCGACGAUC … UGGAAUUCUCGGGUGCCAA
Residues (chain): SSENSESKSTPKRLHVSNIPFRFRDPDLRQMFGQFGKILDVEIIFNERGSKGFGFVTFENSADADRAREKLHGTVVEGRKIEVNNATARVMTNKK
Oligonucleotide	RBNS enrichment (R)
CCUUCAAGUAUGUGCUACUUUUUUGUCCCUGUAUCUAACUCAAAUCAGGAACUGUAUUUUUUUUAAUGAUUUGCUUUUGAAACUUGAAGUCUUGAAAACAGUGUGAUGCA	3.02
GAGAUCUGCCUGCCUCUGCUUCCCAAGUGCUGGGAUUAAAGGCAUGCGCCACCUUCACCUGGGUUUUCUUUCUUAAAGGAACAGGUUAGAGCAAGUGACCGUUGAGGACA	0.352
GCUGGAUCCACCCCUGCGGAGCCCUGGGCCAGGCAGGUGUCUGCUGCUCACCUGGCUCUGGAGGGCUGCCCUGCAGCUGGGCCUGGGGACAGGUCGGCUGUGGGGCAGCU	0.278
AUCUAAAACUAAAGCUGCCUGUGCUUGUUUGUAAAGCUUAUACUCCCAGAAUUAGCCUGAGCUGCUAAGAAUUCCUCAACCCAUUCCUCUAAGCUGAAAAGCACUCUUGU	4.89
CAGCCGUUUCCCAAGCCUGGGCAAAGCCCACCUUUGCCUCUGGCCAGAAGCCUCCCUUCUGUGCACAGGAGCCAGUUUCACAGAUGGAGAAGAUGUCUCAGAUGAAGGGA	0.683
GUCUGCUAUUAAUGGACCAUAUUUAUUACAGUUUUUAAAUUGUACAAUCUCUGUAUUAUAGCUAUUUGUCUAACAUUACCCCACAUGUAAUAAAUAAAACAAUAUGAGCA	1.02
GCAAGUUCUCAUAAACCAGCCGCUACCUUUGGACCCCUCACUCUAUAAUUCCCUGCCCUCUCCCAUCUGAUUGGCUUGUUAAGUGGAGCGUAUGUAAUAUAGAGACUCCU	0.68
AUUGACAGUGUUGAAUUACCAACAGCCUGUGAAGAUCAGUUUGACCGGUGUGGACACGUGCUGGUUAAGCACUCAGGCCUACGUGGGCCGAGCGGGAUCUUGAUCAUGGG	0.199

Series 4 — technique: aptamer microarray, sandwich; molecule type: DNA with 2'F-ANA; sample: in vitro; tested at: 200 nM; added: Cy3 exosite-II aptamer, 400 nM; direction: higher = stronger binding; oligonucleotide: GGTTGGTGTGGTTGG
Target: Prothrombin, mature alpha-thrombin (F2, Homo sapiens, UniProt P00734)
Setting: whole 15-mer aptamer, many near background
Modification	mean fluorescence intensity [a.u.]
2'F-ANA at 1 2 3 10 14	64.6
2'F-ANA at 1 2 3 9 10 13 14 15	54.3
2'F-ANA at 1 2 5 6 7 8 15	64.8
2'F-ANA at 2 3 5 8 9 10	56.9
2'F-ANA at 1 3 4 6 7 10 11	61.6
2'F-ANA at 1 3 4 5 6 8 9 12 13 14	45.6
2'F-ANA at 1 4 8 10 11 13 14	51.1
2'F-ANA at 1 2 7 10 11 13 14	45.3
2'F-ANA at 1 3 4 5 6 7 8 9 10 11 12 13 14	47.7
2'F-ANA at 2 5 7 10 12	56.9
2'F-ANA at 7 11	577
2'F-ANA at 2 7 9 11 12 13 14 15	144
2'F-ANA at 1 2 3 5 8 9 10 11 12	56
2'F-ANA at 1 2 4 5 9 10 12 15	90.9
2'F-ANA at 1 2 3 5 7 8 13 14	49.7
2'F-ANA at 8 10 12 14	115
2'F-ANA at 1 3 4 5 6 7 9 10 11 15	52.4
2'F-ANA at 2 3 5 6 8 9 13 15	92.5
2'F-ANA at 1 3 6 7 9 10 11	73.5
2'F-ANA at 2 3 4 5	114
2'F-ANA at 1 5 8 9 11 14	49
2'F-ANA at 1 3 4 6 7 8 9 13	127

Repeated from above (series 4):
Modification	mean fluorescence intensity [a.u.]
2'F-ANA at 2 7 9 11 12 13 14 15	144
2'F-ANA at 1 2 3 5 8 9 10 11 12	56
2'F-ANA at 1 2 4 5 9 10 12 15	90.9
2'F-ANA at 1 2 3 5 7 8 13 14	49.7
